# Published values from different studies.
# Each line is one published result; not all experiments were run side by side. Numbers after ± are the reported error.
# Rc3h1: Rc3h1 411-454 (Mus musculus, UniProt Q4VGL6)
# Chain of UniProt Q4VGL6 (whole entry, looked up): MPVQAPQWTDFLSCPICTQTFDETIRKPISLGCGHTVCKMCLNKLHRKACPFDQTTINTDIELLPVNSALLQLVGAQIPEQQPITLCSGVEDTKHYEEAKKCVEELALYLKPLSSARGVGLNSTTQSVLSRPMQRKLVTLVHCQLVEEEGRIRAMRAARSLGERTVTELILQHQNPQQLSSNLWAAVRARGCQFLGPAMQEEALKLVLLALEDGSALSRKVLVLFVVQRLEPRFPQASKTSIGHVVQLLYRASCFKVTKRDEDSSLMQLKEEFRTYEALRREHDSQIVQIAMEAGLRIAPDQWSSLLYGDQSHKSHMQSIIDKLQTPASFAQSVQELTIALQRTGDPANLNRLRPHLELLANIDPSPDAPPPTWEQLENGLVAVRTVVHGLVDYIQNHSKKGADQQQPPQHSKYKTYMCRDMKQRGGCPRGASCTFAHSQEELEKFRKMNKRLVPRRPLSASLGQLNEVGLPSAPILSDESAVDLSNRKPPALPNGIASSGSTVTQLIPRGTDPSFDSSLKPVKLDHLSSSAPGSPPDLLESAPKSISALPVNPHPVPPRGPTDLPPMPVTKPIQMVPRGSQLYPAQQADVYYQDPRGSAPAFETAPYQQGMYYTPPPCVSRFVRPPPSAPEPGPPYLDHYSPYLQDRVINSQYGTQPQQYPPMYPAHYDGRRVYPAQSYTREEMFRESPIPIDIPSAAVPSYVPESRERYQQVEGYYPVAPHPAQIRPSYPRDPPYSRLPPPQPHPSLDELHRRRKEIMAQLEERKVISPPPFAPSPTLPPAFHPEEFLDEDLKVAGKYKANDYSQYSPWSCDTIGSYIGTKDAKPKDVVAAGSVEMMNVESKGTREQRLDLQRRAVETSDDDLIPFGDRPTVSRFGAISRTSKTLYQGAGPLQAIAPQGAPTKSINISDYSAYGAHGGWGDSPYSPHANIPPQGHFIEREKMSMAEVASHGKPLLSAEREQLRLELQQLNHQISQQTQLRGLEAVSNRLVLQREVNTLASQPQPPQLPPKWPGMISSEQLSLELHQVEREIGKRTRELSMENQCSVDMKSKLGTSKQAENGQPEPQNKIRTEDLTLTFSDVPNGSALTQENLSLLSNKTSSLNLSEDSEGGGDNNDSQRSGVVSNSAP
# LHY full length assumed: LHY full length assumed (Arabidopsis thaliana, UniProt Q6R0H1)
# Chain of UniProt Q6R0H1 (whole entry, looked up): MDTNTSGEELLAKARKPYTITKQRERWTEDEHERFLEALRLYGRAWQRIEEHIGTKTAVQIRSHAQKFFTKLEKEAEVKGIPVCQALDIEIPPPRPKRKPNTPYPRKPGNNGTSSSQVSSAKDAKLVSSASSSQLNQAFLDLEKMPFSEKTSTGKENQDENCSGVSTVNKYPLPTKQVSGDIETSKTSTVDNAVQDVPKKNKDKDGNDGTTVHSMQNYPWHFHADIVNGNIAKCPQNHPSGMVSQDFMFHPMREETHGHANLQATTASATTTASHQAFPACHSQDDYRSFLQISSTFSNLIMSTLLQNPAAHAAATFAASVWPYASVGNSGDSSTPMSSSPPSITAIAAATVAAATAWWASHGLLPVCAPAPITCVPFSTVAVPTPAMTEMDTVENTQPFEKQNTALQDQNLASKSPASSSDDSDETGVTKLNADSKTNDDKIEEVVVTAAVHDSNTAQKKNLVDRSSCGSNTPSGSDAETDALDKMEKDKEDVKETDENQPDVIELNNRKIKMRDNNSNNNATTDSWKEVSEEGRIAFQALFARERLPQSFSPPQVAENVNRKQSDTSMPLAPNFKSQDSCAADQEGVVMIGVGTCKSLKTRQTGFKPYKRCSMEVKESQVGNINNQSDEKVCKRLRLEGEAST
# RAP1/Yku70/Yku80: RAP1/Yku70/Yku80 (Saccharomyces cerevisiae)
# T1: TnsC/TnsD A225V (Escherichia coli); chain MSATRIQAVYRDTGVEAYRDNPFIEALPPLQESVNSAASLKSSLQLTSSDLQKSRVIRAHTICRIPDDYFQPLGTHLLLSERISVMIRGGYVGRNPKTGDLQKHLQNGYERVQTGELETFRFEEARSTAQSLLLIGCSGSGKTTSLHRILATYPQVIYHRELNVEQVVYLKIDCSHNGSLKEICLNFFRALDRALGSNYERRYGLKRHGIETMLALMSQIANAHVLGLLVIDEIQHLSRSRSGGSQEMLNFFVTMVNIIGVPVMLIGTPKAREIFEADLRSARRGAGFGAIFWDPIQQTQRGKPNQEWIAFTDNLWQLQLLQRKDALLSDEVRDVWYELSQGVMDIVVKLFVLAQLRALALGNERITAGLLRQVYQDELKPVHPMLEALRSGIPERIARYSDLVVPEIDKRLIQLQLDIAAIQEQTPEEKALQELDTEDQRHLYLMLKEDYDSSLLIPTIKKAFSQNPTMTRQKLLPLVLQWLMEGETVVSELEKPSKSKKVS; chain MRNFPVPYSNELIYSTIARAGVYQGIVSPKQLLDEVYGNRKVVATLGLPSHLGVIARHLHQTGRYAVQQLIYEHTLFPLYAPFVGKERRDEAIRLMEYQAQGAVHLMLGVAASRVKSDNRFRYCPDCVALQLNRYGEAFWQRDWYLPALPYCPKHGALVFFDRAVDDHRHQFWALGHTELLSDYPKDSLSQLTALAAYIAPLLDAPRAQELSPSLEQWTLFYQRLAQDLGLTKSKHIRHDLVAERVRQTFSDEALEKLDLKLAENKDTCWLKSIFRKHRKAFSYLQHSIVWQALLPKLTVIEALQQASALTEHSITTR
# Chain of UniProt P25454 (whole entry, looked up): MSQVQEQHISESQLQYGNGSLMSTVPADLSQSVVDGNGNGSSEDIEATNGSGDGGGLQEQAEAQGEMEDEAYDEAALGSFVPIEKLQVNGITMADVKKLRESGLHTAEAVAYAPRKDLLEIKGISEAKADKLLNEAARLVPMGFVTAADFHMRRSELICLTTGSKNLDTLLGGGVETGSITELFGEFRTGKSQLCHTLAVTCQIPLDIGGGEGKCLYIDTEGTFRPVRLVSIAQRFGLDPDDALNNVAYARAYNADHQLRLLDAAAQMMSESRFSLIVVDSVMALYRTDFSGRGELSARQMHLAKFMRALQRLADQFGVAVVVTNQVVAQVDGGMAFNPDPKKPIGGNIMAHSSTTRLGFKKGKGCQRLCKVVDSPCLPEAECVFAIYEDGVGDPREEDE
# Chain of UniProt Q8W4L5 (whole entry, looked up): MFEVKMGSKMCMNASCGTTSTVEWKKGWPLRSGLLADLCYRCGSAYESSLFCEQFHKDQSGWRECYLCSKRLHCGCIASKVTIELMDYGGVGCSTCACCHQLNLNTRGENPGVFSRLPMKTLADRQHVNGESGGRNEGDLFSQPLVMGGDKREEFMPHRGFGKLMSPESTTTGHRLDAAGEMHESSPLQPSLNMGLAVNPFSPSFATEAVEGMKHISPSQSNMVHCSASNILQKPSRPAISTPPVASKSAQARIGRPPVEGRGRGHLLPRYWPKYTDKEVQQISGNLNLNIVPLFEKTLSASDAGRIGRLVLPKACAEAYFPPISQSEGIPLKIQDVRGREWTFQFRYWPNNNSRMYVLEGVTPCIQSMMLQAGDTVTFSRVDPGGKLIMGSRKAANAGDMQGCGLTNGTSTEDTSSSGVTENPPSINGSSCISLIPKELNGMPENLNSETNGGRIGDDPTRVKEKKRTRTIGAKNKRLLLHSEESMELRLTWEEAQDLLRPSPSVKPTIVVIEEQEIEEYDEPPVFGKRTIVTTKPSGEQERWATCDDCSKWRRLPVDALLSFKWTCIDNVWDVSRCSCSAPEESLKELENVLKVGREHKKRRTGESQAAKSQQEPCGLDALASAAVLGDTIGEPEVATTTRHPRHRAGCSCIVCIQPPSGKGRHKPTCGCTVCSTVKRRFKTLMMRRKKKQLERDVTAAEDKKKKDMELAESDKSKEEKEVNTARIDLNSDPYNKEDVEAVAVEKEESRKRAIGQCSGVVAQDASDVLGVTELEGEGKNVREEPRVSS
# Chain of UniProt P32787 (whole entry, looked up): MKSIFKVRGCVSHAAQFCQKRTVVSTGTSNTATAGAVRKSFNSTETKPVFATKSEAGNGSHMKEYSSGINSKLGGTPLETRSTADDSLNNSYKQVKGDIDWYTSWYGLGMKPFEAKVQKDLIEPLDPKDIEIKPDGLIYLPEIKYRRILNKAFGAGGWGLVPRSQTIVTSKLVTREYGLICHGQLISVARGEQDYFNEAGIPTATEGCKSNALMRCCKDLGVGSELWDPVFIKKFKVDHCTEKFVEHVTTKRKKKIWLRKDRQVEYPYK
# Chain of UniProt Q13YL3 (whole entry, looked up): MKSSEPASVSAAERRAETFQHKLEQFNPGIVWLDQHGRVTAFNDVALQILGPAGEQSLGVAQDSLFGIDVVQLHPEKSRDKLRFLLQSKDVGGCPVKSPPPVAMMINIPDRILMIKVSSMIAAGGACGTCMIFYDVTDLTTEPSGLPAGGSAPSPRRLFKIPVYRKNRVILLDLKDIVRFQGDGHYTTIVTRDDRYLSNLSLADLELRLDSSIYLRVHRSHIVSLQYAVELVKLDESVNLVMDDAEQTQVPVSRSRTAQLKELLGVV
# Chain of UniProt P25963 (whole entry, looked up): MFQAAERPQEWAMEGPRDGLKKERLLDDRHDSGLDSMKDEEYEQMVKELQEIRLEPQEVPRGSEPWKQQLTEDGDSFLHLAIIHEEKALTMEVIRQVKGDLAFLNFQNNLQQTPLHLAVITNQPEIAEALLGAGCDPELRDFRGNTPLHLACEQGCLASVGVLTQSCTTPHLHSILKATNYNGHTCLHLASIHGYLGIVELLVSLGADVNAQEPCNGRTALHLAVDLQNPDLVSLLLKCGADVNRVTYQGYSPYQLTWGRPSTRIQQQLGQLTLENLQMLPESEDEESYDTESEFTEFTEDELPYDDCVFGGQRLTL
# Chain of UniProt Q5T3I0 (whole entry, looked up): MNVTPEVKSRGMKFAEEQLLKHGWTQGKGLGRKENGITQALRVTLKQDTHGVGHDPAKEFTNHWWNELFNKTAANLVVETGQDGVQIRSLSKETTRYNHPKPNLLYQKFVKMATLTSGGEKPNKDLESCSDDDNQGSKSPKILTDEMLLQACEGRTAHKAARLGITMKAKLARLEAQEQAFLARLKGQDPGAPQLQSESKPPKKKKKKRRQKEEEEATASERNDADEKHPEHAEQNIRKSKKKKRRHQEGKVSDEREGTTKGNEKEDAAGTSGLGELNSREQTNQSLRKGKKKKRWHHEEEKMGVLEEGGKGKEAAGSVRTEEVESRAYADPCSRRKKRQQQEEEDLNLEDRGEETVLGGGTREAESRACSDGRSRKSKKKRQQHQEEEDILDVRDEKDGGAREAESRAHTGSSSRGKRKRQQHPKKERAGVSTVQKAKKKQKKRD
# Chain of UniProt P14780 (whole entry, looked up): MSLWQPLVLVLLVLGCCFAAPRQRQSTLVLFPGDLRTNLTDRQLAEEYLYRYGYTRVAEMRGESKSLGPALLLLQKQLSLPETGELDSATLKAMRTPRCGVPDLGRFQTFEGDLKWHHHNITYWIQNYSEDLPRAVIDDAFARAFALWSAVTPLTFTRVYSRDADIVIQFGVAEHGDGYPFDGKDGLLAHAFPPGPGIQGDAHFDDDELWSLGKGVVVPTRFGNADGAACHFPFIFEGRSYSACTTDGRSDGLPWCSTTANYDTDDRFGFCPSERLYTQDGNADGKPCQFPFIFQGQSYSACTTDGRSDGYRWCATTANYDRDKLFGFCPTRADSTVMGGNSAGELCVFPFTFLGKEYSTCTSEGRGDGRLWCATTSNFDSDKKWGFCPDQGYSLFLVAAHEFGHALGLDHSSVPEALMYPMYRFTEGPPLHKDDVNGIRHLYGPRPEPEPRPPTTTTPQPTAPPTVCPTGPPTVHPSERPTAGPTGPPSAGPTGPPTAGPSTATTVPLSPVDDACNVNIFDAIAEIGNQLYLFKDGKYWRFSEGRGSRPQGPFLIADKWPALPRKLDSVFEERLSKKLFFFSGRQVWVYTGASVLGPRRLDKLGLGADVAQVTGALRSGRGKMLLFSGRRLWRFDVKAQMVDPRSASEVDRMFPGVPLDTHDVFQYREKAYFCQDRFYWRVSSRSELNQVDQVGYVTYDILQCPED
Substance,target or system,test,system,conditions,endpoint,result
TGCCATAGAATCTCGACTATCGCAAAT (ssDNA),"gene 32 protein 1-301 (bacteriophage T4, UniProt P03695)",EMSA,single-stranded DNA,"10 mM, with: Mg2+",binding,binds
Peginesatide,UT7/EPO,"phosphorylation, agonist, item: phospho-p38",,10 min,EC50,1.51 nM
ATTTTTATTTTATTTTT (ssDNA),"ELAVL1 1-326 (Homo sapiens, UniProt Q15717)",BLI,single-stranded DNA,pH 7.4,binding,binds
UUUAUUUU (ssRNA),Rc3h1,NMR,RNA,,binding,binds
GAGCTGCAAGTGGATATTTGGACCTCTTTGAGGTCTTCGTTGGAAACGGGATTTCCTCATATAATGTTACACAGAAGAATTCTCAGTAACTTATTTGTGGTGTGTGTATTCAACTCACAGAGGTGAACCTTCCTTCAGAAAGAGCAGATTTGAAACACTCTTTTTGTACCC (dsDNA),"CENPI 57-281 K243A/K263A/K270A/R279A/N280A (Homo sapiens, UniProt Q92674)",EMSA,"double-stranded DNA, one strand shown",,binding,no binding
ATACGGGAAGTTTGAGGCGCCGTCCACTTGACCATAC (dsDNA),"ERF-D2 full length assumed (Solanum lycopersicum, UniProt A0A3Q7JX06)",EMSA,"double-stranded DNA, one strand shown",competitor,binding,binds
ATACTAACAATCAGAACCCGGATTAATCGAAAGCTT (dsDNA),"tnsD 1-318 (Escherichia coli, UniProt P13991)",EMSA,"double-stranded DNA, one strand shown",,binding,binds
GCATATGGCAGCTTGAACAGTGAGCGCAACGCAATTTTGCAGCGA (dsDNA),"lacI full length assumed (Escherichia coli, UniProt P03023)",BLI,"double-stranded DNA, one strand shown",,binding,binds
GGTTAGGGTTAG (ssDNA; 5'-phosphate),"POT1 1-299 H82A (Homo sapiens, UniProt Q9NUX5)",EMSA,single-stranded DNA,,binding,binds
TTATATTT (ssDNA),Rc3h1,NMR,single-stranded DNA,,binding,binds
CAGCCAACTAAACTA (dsDNA),"T1, TnsC/TnsD A225V (Escherichia coli)",EMSA,"double-stranded DNA, one strand shown",with: ATP 0.33 mM,binding,binds
colistin,Salmonella enterica serovar Uganda,broth microdilution,clinical isolate RKI-No 206/14,,MIC,≤ 0.5 µg/mL
GACTCATTGTAATGCAAAAGGG (dsDNA; blunt),"SOX2 39-118 (Homo sapiens, UniProt P48431)",NMR,"double-stranded DNA, one strand shown",,binding,binds
ATAAGTCACATGATGATATTTGATTTTATTATATTTTTAAAAAAAGTAAAAAATAAAAAGTAGTTTATTTTTAAAAAATAAAATTTAAAATATTTCACAAAATGATTTCCGAA (dsDNA),"CENP-I 1-229 K209E (Thermochaetoides thermophila, UniProt G0SFF7)",EMSA,"double-stranded DNA, one strand shown",,binding,binds
GGGCGAAUUCUGCUCCAUGUGUGCACCUACUGCUCCAUGUGUGCACCUACUGCUCCAUGUGUGCACCUACA (ssRNA),"GPATCH4 full length assumed (Homo sapiens, UniProt Q5T3I0)",pull-down,RNA,"radiolabelled RNA, denaturing PAGE readout",binding,no binding
TCCAAGCGGGATGCGGAGCCGCCGCCGCCGCCG (dsDNA; blunt),WT1 zinc finger domain 323-435 (Homo sapiens),EMSA,"double-stranded DNA, one strand shown",,binding,no binding
TATTTTTAAAACAAAAATATATTAACAAAAATCTAAAACTAAAATCTAAAATCTAGAAAC (dsDNA),LHY full length assumed,EMSA,"double-stranded DNA, one strand shown",,binding,binds
GTGTGGTTAATATGGTGTGGTTAATATGGTGTGGTTAATATGGTGTGGTTAATATG (ssDNA),"RNJ 604-911 (Arabidopsis thaliana, UniProt Q84W56)",EMSA,single-stranded DNA,,binding,no binding
TGGTTGTTTGTTTGCCGTTGGAGGTCTTTGTGTTGGATG (ssDNA; 5'-phosphate),"MMP9 20-707 (Homo sapiens, UniProt P14780)",ELASA,single-stranded DNA,,binding,no binding
DNA 1 AAGGTGTGTGGGTGTGGTAATTTTTTTTTT / DNA 2 ATTACCACACCCACACACCTT (dsDNA; 3' 9 nt overhang),RAP1/Yku70/Yku80,EMSA,double-stranded DNA,,binding,binds
AGGAGCGTGACACGTAAGACAAAAAG (dsDNA),HY5/CaM2 1-158; 1-149 (Solanum lycopersicum),EMSA,"double-stranded DNA, one strand shown",with: CaCl2 5 mM,binding,binds
AAAAAAAAAAAAAAAAAAAAAAAAAAAAAAAAAAAAAAAAAAAA (ssRNA),"Uncharacterized protein full length assumed (Arabidopsis thaliana, UniProt F4K402)",EMSA,RNA,,binding,no binding
TAATTTTAAACAAAATATTAACAATTAAAATATCACCCTTGTGAATAATATTTAAAACTT (dsDNA),LHY full length assumed,EMSA,"double-stranded DNA, one strand shown",,binding,binds
CTCAATTCTGTCCTATTTCTTGTGCATGAAACTTCTCCATCTTGTAATCG (dsDNA),"VAL1 289-396 (Arabidopsis thaliana, UniProt Q8W4L5)",EMSA,"double-stranded DNA, one strand shown",,binding,binds
ACCAAGCGGGATGTGGAGCCGCCGCCGCCGCCG (dsDNA; blunt),WT1 zinc finger domain 323-435 (Homo sapiens),EMSA,"double-stranded DNA, one strand shown",,binding,no binding
ACACATTATGTTGTTTATTGTACGGCCAACATTTTGCCTAACA (dsDNA),"SPL13 1-401 (Vitis vinifera, UniProt F6GSW2)",EMSA,"double-stranded DNA, one strand shown",,binding,binds
DNA 1 TTGCATATTTAAAACATGTTGAGCTACAGCACCAGATTCAGCAATTAAGCTCTAAGCCATCCGCAAAAATGACCTCTTATCAA / DNA 2 TTGATAAGAGGTCATTTTTGCGGATGGCTTAGAGCTTAATTGCTGAATCTGGTGCTGTAGCTCAACATGTTTTAAATATGCAATGAC (dsDNA; 3' 4 nt overhang),"MGM101 23-269 (Saccharomyces cerevisiae, UniProt P32787)",native MS,double-stranded DNA,,binding,binds
GCAGCUCGGGGAUCAUGGCCCACUGAACCCCCAAGCGC (structured RNA),"NFKBIA 5-63 (Homo sapiens, UniProt P25963)",NMR,folded RNA,,binding,no binding
GGTGGTGGTGGTGGTGGT (ssDNA),"recA full length assumed F204Q (Escherichia coli, UniProt P0A7G6)",fluorescence anisotropy,single-stranded DNA,with: ATPγS,binding,binds
ATTATTCCCGATGGAATTTCAAATGCT (dsDNA),"WRKY domain-containing protein 1-296 (Camellia sinensis, UniProt A0A4S4EXI7)",EMSA,"double-stranded DNA, one strand shown",,binding,no binding
TGTTGTGTGGAATTGTGAGCGGATAACAATTTCACACAGG (dsDNA (Escherichia coli); blunt),"lacI full length assumed N125C (Escherichia coli, UniProt P03023)",filter binding,"double-stranded DNA, one strand shown",,binding,binds
UAUUAUUGU (ssRNA),"pos-1 97-173 (Caenorhabditis elegans, UniProt G5EF15)",NMR 15N-1H HSQC,RNA,,binding,binds
CAGCATGGCAGCGCGCATAATCAGCGCGGCAGCGCATTTTCATTC (dsDNA),"gbp (Glycine max, UniProt Q8LKV1)",EMSA,"double-stranded DNA, one strand shown",,binding,no binding
CTACCTTAATTAGTTAGGTACTTTTCACGTTACCTTGAAACCTATAAAATATAGAC (dsDNA),"HY5 full length assumed (Arabidopsis thaliana, UniProt O24646)",EMSA,"double-stranded DNA, one strand shown",,binding,binds
11-deoxycorticosterone,CYP11B2 (human),"substrate binding, stopped-flow global kinetic fitting",purified enzyme,"3-state induced fit model, with: 10-fold excess adrenodoxin",rate constant k2,0.0116 ± 0.197 s⁻¹
CCCTCCCACCCCTGCCGCCACACACATCCAAC (dsDNA),"DREB1A 1-238 (Oryza sativa, UniProt Q64MA1)",EMSA,"double-stranded DNA, one strand shown",,binding,binds
AATTCTCATTTTACTTACCGGACGCTATTAGCAGTGAAAATTTCCTGATAGTCGTCACCGCGTTTTGCGCACTCTTTCTCGTAGGTACTCAGTCCG (ssDNA),"RAD51 full length assumed (Saccharomyces cerevisiae, UniProt P25454)",cryo-EM,single-stranded DNA,with: ATP,binding,binds
DNA 1 AAGGTGTGTGGGTGTGGTAATTTTTTTTTTTTT / DNA 2 ATTACCACACCCACACACCTT (dsDNA; 3' 12 nt overhang),RAP1/Yku70/Yku80,EMSA,double-stranded DNA,,binding,binds
UGUGUGUGUGUGUGUG (ssRNA),"EIF4A1 1-406 (Homo sapiens, UniProt P60842)",fluorescence polarization,RNA,"with: silvestrol 10 µM, ATP",binding,binds
TCGGGTTTCATGTACGTT (dsDNA; blunt),"rcoM1 full length assumed (Paraburkholderia xenovorans, UniProt Q13YL3)",fluorescence anisotropy,"double-stranded DNA, one strand shown",Fe(II)-CO,binding,no binding
AGTTGGCAAGTC (dsDNA),"NFIB 14-176 K126A (Homo sapiens, UniProt O00712)",BLI,"double-stranded DNA, one strand shown",with: Zn2+ 1 mM,binding,no binding

# Repeated from above:
Substance,target or system,test,system,conditions,endpoint,result
GCAGCUCGGGGAUCAUGGCCCACUGAACCCCCAAGCGC (structured RNA),"NFKBIA 5-63 (Homo sapiens, UniProt P25963)",NMR,folded RNA,,binding,no binding
GGTGGTGGTGGTGGTGGT (ssDNA),"recA full length assumed F204Q (Escherichia coli, UniProt P0A7G6)",fluorescence anisotropy,single-stranded DNA,with: ATPγS,binding,binds
ATTATTCCCGATGGAATTTCAAATGCT (dsDNA),"WRKY domain-containing protein 1-296 (Camellia sinensis, UniProt A0A4S4EXI7)",EMSA,"double-stranded DNA, one strand shown",,binding,no binding
TGTTGTGTGGAATTGTGAGCGGATAACAATTTCACACAGG (dsDNA (Escherichia coli); blunt),"lacI full length assumed N125C (Escherichia coli, UniProt P03023)",filter binding,"double-stranded DNA, one strand shown",,binding,binds
UAUUAUUGU (ssRNA),"pos-1 97-173 (Caenorhabditis elegans, UniProt G5EF15)",NMR 15N-1H HSQC,RNA,,binding,binds
CAGCATGGCAGCGCGCATAATCAGCGCGGCAGCGCATTTTCATTC (dsDNA),"gbp (Glycine max, UniProt Q8LKV1)",EMSA,"double-stranded DNA, one strand shown",,binding,no binding
CTACCTTAATTAGTTAGGTACTTTTCACGTTACCTTGAAACCTATAAAATATAGAC (dsDNA),"HY5 full length assumed (Arabidopsis thaliana, UniProt O24646)",EMSA,"double-stranded DNA, one strand shown",,binding,binds
